Published values from different studies.
Protocols differ between the studies behind these lines. Values joined by “and” are separate records of one study, mostly repeats; a detail may differ.
FGFR1: Fibroblast growth factor receptor 1 (FGFR1, Homo sapiens, UniProt P11362)
FGFR1 V561M: Fibroblast growth factor receptor 1 (FGFR1, Homo sapiens, UniProt P11362, V561M)

Structure (SMILES)	target	test	setting	how to read	quantity	value
Nc1nc(Nc2ccccc2)sc1C(=O)c1ccccc1	FGFR1	enzyme activity, inhibitor	10 µM		remaining activity	39%
C=CC(=O)N1CCc2ccc(-n3c(=O)ccc4cnc5ccc(-c6cnn(C)c6)cc5c43)cc21	FGFR1	KINOMEscan	1 µM	relative to: DMSO control	remaining binding	100%
CN1CCN(c2ccc(Nc3ncc(Cl)c(Nc4ccccc4P(C)(C)=O)n3)cc2Br)CC1	FGFR1	enzyme activity, inhibitor	0.1 µM		inhibition	45.7%
CCn1cc(C(=O)O)c(=O)c2c(N)c(F)c(NC3CCCCC3)cc21	FGFR1	kinase activity	0.1 µM, together with: ATP at Km		inhibition	-2.1%
CCN1CCN(Cc2ccc(NC(=O)c3ccc(C)c(NC(=O)c4cncc(-c5cccs5)c4)c3)cc2C(F)(F)F)CC1	FGFR1	binding, competition with immobilised ligand	1 µM		remaining binding	32%
COc1c(Cl)cccc1Nc1c(-c2ccncc2C#C[C@@]2(C)CCCN2C(=O)/C=C/CN(C)C)[nH]c2c1C(=O)NCC2	FGFR1	cell-free assay, competition with immobilised ligand	3 µM		remaining binding	95%
COc1cc(Nc2nccc(-c3cnn4nc(OC)ccc34)n2)cc(C(F)(F)F)c1	FGFR1	binding, competition with immobilised ligand	1 µM		remaining binding	93%
C[C@H]1CN(C(=O)c2cn(-c3ccnc(N)n3)c3cc(C#CC4(O)CCCCC4)ccc23)CCN1	FGFR1	enzyme activity, inhibitor, FRET	1 µM		inhibition	-6%
CC(C)=CC1OC(C)(C)C2C=C3C(=O)C(Cl)=CC(O)C3C3C(O)C4OC4C(=O)C132 (centres unmarked)	FGFR1	cell-free assay, competition with immobilised ligand	10 µM		remaining binding	76%
NC(=O)C[C@H]1CCc2sc3ncnc(O[C@H]4CC[C@H](N5CCOCC5)CC4)c3c21	FGFR1	enzyme activity, inhibitor	10 µM		inhibition	9%
Cc1cnc2nc1Nc1cccc(c1)COC/C=C/COCc1cc(ccc1OCCN1CCOCC1)N2	FGFR1	binding	0.1 µM		remaining binding	68%
O=C=[N][Ru-4]123([n]4c5ccc(O)cc5c5c6c(c7cc(F)c[n+]1c7c54)C(=O)NC6=O)[S+]1CC[S+]2CC[S+]3CC1 (centres unmarked)	FGFR1	enzyme activity	100 nM, human enzyme, together with: 10 µM ATP	relative to: untreated	remaining activity	132%
Cc1cccc(-c2ccc3nc(NC(=O)C4CCOCC4)nn3c2)c1	FGFR1	enzyme activity, Dundee kinase panel	10 µM		remaining activity	88%
C=CC(=O)N1Cc2nc(-c3cc(-c4cc(Cl)cnc4Cl)c(F)cc3F)n(-c3ccncn3)c2C1	FGFR1	cell-free assay	1 µM		inhibition	3.3%
Cc1cccc(-c2ccc3nc(NC(=O)C4CCCCC4)nn3c2)c1	FGFR1	enzyme activity, Dundee kinase panel	10 µM		remaining activity	111%
Cc1nc2c(F)cc(-c3nc(Nc4ccc(CNC(=O)CCCCCCC(=O)NO)cc4)ncc3F)cc2n1C(C)C	FGFR1	enzyme activity, inhibitor	1 µM		inhibition	66%
COc1ccc(NC(=O)Nc2ccc3c(c2)C(=O)N(C(C)CO)CC(C)C(CN(C)Cc2ccc4c(c2)OCO4)O3)cc1 (centres unmarked)	FGFR1 V561M	kinase activity	0.03 µM	relative to: control	remaining activity	90%
Cc1cccc(O[C@H]2CCC[C@@H](C(C)CNCc3ccncc3)C2)c1 (relative stereo)	FGFR1	cell-free assay	1 µM		inhibition	7%
O=C(Cc1ccc(OCc2ccccc2)cc1)NC1(C(=O)O)CCN(C(=O)c2ccc(-c3cccc(Cl)c3)cc2)CC1	FGFR1	enzyme activity, inhibitor	10 µM		activity vs control	89%
CN1CCN(Cc2ccc(-c3ccc(CO[C@H]4CCC[C@@H]4NC(=O)c4cc(-c5cnn(C)c5)cnc4N)cc3)cc2)CC1	FGFR1 V561M	enzyme activity, inhibitor	0.1 µM		inhibition	3%
COc1cc(-n2cc3cc(F)cc(C(N)=O)c3n2)cc(Cl)c1C1CC(O)(CCO)Cc2ccccc21 (centres unmarked)	FGFR1	enzyme activity, inhibitor	10 µM		inhibition	0.9%
C=CC(=O)Nc1cccc(-c2cnc3[nH]cc(C(=O)NC(C)(C)C)c3n2)c1	FGFR1	kinase activity	0.1 µM		inhibition	22% and 24%
COCC12C(=O)NC3C4(C(OC)CC1O)C1CC5(O)C(OC)C(O)C(OC(C)=O)(C1C5OC(=O)c1ccccc1)C3(O)C(OC)C24 (centres unmarked)	FGFR1	kinase activity, inhibitor, ProQinase kinase profiling	25 µM	relative to: control	remaining activity	115% and 110%

For quick reference, copied from above:
Structure (SMILES)	target	test	setting	how to read	quantity	value
CN1CCN(Cc2ccc(-c3ccc(CO[C@H]4CCC[C@@H]4NC(=O)c4cc(-c5cnn(C)c5)cnc4N)cc3)cc2)CC1	FGFR1 V561M	enzyme activity, inhibitor	0.1 µM		inhibition	3%
COc1cc(-n2cc3cc(F)cc(C(N)=O)c3n2)cc(Cl)c1C1CC(O)(CCO)Cc2ccccc21 (centres unmarked)	FGFR1	enzyme activity, inhibitor	10 µM		inhibition	0.9%
